Earlier results that unrelated publications cite.
± marks the error that the study gave.

| Molecule | target | assay | system | conditions | IC50 [µM] |
| --- | --- | --- | --- | --- | --- |
| O=C(O)COc1ccc(Cl)cc1 | Torpedo CLC-0 chloride channel | chloride current, inhibitor | – | intracellular application, +80 mV | ~30000 |
| Cn1c(=O)c2c(ncn2C)n(C)c1=O | ATR | – | – | – | 1100 |
| Oc1cc(Oc2cc(Br)c(Br)cc2Br)c(Br)cc1Br | iodothyronine deiodinase 1 (human) | enzyme activity, inhibitor | pooled human liver microsomes | – | 0.4 |
| O=[N+]([O-])c1ccc(Oc2ccc(S(=O)(=O)NC3CCCCC3)cc2)cc1 | mitochondrial complex I site IQ | superoxide/H2O2 production, inhibitor | – | – | < 5 |
| O=C(O)Cc1ccc(O)c(O)c1 | mitochondrial complex I rat | enzyme activity, inhibitor | rat brain mitochondria, digitonin-treated | 1 min preincubation | 61.2 ± 8.08 |
| CN[C@@H]1[C@@H](O)[C@@H](O[C@@H]2[C@@H](O)[C@H](O[C@H]3O[C@H]([C@@H](C)O)[C@@H](O)[C@H](O)[C@H]3N)[C@@H](N)C[C@H]2N)OC[C@]1(C)O | rabbit ribosome | translation, inhibitor, refers to: firefly luciferase | rabbit reticulocyte lysate | – | 2 ± 0.3 |
| CC(C)CCCCC/C=C/C=C/C(=O)N[C@H](C(=O)N[C@H]1C[C@@H](O)CCNC(=O)/C=C/[C@H](C)NC1=O)[C@@H](C)O | yeast proteasome β5 subunit | inhibitor | purified yeast proteasome | – | 0.004 |
| O=C1Cc2ccccc2C(=O)N1O | HIV-1 reverse transcriptase RNase H | enzyme activity | – | – | 5.9 |
| O=C1C(O)=C([C@H]2CC[C@H](c3ccc(Cl)cc3)CC2)C(=O)c2ccccc21 | human dihydroorotate dehydrogenase | inhibitor | – | – | 14.5 |
| COCC[C@H]1CC2CN3CCc4c([nH]c5ccccc45)[C@](C(=O)OC)(C2)[C@H]13 | α3β4 nicotinic acetylcholine receptor | desensitized state stabilization | – | – | 0.75 to 0.9 |
| CCCCCCCCCCCCCCCCS(=O)(=O)F | FAAH | enzyme activity, inhibitor | – | added: radiolabelled anandamide substrate | 0.007 |
| cilengitide | integrin αVβ3, human | – | – | – | 0.003 |
| NC(=O)[C@@H]1CC[C@@H]2CN1C(=O)N2OS(=O)(=O)O | PBP1b | enzyme activity | – | highest concentration 50 µM | > 50 |
| CCCCCC(=O)N[C@H](C(=O)N[C@@H](CCS(C)(=O)=O)C(=O)N[C@@H](CC(C)C)C(=O)[C@@]1(C)CO1)C(C)C | Saccharomyces cerevisiae 20S proteasome β5 | chymotrypsin-like activity | – | – | 0.0026 |
| C[n+]1cn([C@@H]2O[C@H](COP(=O)(O)OP(=O)([O-])O)[C@@H](O)[C@H]2O)c2nc(N)[nH]c(=O)c21 | Caenorhabditis elegans decapping scavenger DcpS | hydrolytic activity, inhibitor | – | – | 0.12 |
| COc1ccc(/C=C\c2cc(OC)c(OC)c(OC)c2)cc1OP(=O)(O)O | tubulin (bovine brain) | tubulin polymerisation, inhibitor | – | – | > 40 |
| O=C(O)c1ccc2cc(-c3ccc(O)c(C45CC6CC(CC(C6)C4)C5)c3)ccc2c1 | CYP26A1 | enzyme activity, inhibitor | – | added: 9-cis-retinoic acid | 0.04 |
| CCCCC/C=C\C/C=C\C/C=C\C/C=C\CCCC(=O)NCCO | MAO-B, pig | inhibitor | brain cortex mitochondria | added: phenylethylamine | 1670 |
| epigallocatechin gallate | catechol O-methyltransferase (human) | enzyme activity, inhibitor | – | added: 2-hydroxyestradiol | ~0.07 |
| N#CSCCOc1ccc(Oc2ccccc2)cc1 | squalene synthase Trypanosoma cruzi | inhibitor | mitochondrial membrane vesicles | – | 0.129 |
